Results pooled from the literature.
Parts stem from different laboratories: compare values within a part only. Several values in a cell are separate wells, animals, samples, runs or records. Substitutions count along the parent as printed.

Sample 1 — target: CCNB2, cyclin fold, Cln2 fusion (human); method: yeast growth competition, sequencing; matrix: yeast; notes: strong parent motif; baseline: not given; reading: higher = stronger binding; quantity: normalised enrichment score
Starting sequence: viral docking peptide; TSVRRALFTGGSD; partner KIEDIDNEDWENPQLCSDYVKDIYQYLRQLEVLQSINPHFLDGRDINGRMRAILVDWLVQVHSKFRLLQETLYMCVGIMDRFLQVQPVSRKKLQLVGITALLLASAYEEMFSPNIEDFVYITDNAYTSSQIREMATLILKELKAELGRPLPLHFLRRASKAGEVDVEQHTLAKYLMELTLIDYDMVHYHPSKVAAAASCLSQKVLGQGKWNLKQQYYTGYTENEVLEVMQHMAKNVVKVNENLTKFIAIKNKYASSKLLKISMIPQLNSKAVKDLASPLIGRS
F8V: 0.349
S2P: 0.793
V3N: 0.0299
R4K: 0.47
G11Q: 0.837
T9N: 0.625
F8N: 0.176
S2D: 0.481

Sample 2 — observed: cell-free assay; method: competition with immobilised ligand; concentration: 1 µM; quantity: remaining binding
Target: Calcium-dependent protein kinase 1 (CDPK1, Plasmodium falciparum, UniProt P62344)
UniProt P62344, sequence (whole entry, looked up): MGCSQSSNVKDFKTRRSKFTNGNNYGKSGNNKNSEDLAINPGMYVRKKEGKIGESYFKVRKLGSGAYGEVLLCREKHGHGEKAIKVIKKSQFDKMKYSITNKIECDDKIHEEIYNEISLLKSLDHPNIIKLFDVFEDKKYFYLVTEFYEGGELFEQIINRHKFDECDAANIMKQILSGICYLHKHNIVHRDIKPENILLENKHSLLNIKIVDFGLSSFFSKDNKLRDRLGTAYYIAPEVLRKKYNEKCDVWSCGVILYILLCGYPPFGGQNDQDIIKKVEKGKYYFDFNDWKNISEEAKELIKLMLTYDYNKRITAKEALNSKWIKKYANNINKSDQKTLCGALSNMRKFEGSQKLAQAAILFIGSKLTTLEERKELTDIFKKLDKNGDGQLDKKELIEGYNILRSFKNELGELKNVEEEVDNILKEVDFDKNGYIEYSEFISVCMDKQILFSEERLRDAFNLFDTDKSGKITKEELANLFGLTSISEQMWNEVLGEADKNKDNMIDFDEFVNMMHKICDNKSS
Cc1c(NC(=O)c2cc(C(N)=O)nc3cc(F)ccc23)c(C(F)(F)F)nn1Cc1ccc(C#N)cc1: 92%
C[C@H](NC(=O)c1cnc2n1[C@](C)(Cc1ccc(C#N)cc1)C(=O)N2c1cc(Cl)c(F)c(Cl)c1)C(=O)NC1(c2ccccn2)CC1: 100%
NS(=O)(=O)c1cc(NC(=O)C2(c3ccccc3Cl)CC2)ccc1Oc1cccc(Cl)c1: 89%

Sample 3 — cell line: HEK-293T-ACE2-TMPRSS2; method: cell count; concentration: concentration not given; quantity: viability
CC(C)(C)OC(=O)N1CCN(c2ncnc3sccc23)CC1: 198%
CCOC(=O)c1ccc2c(c1)[C@@H]1C=CC[C@@H]1[C@H](c1ccccc1OCc1ccccc1)N2: 81%
Cc1ccc(/C(C#N)=C2\C=C(Br)C(=NO)C=C2Cl)cc1: 99%
CCOC(=O)CNC(=O)Nc1ccc2c(c1)CCN2S(=O)(=O)c1ccccc1: 77%
CC1CCN(CCCNC(=O)c2ccc(-c3cc(N4CCCC4)ncn3)cc2)CC1: 112%
CCOC(=O)c1cnn(-c2ccc(C(=O)NCC3CCN(Cc4ccc(Cl)cc4)CC3)cc2)c1N: 67%
C=C1C(=O)O[C@H]2[C@H]1CC/C(C)=C\CC[C@@]1(C)O[C@@H]21: 91%
CC(C)CN1CC(C(=O)NCc2nncn2C2CCCCC2)CC1=O (stereo not shown): 100%
Cc1ccc(S(=O)(=O)N2CCC(C(=O)Nc3nc4ccccc4s3)CC2)cc1: 73%
O=C(NCCc1nc2ccccc2[nH]1)c1cc(COc2ccccc2)[nH]n1: 72%
Cc1nc2ccccc2n(Cc2ccc(C(=O)NC3CCN(Cc4ccccc4)CC3)cc2)c1=O: 74%
Cc1ccc2c(=O)c(C(=O)Nc3ccccc3)cn(CC(=O)NC3CCCC3)c2n1: 78%
Cc1nn(-c2ccc(-c3noc(C4CC4)n3)cc2)cc1C(=O)Nc1ccc2c(c1)OCCO2: 75%
Cc1ccc(CS(=O)(=O)c2ncc(Cl)c(C(=O)N3CCN(C)CC3)n2)cc1: 77%
NC(=O)OC(c1ccccc1)C(Cl)(Cl)Cl (stereo not shown): 108%
O=C(NCCN1CCCCC1)C1CCc2ncc(-c3ccc(F)cc3)n2C1 (stereo not shown): 82%
Cn1ccc2ccn(CC(=O)Nc3cccc(Br)c3)c(=O)c21: 103%
CS(=O)(=O)c1ncc(Cl)c(C(=O)Nc2ccccc2Cc2ccccc2)n1: 71%
CCC(CC)n1nc(C)cc1NC(=O)C(=O)Nc1ccc(C)cc1C: 81%
CC(C)Nc1ncc(CN2CCC(c3ccnc(-c4ccc5c(c4)OCO5)c3)C2)cn1 (stereo not shown): 67%

Sample 4 — cell line: HEK-293T/ACE2; method: Hoechst nuclei count; concentration: concentration not given; time: 16 (unit not given); baseline: vehicle; quantity: viability
CC(C)c1nc(N(C)S(C)(=O)=O)nc(-c2ccc(F)cc2)c1/C=C/[C@@H](O)C[C@@H](O)CC(=O)O: 95.2%
CNC(=O)c1cc(Oc2ccc(NC(=O)Nc3ccc(Cl)c(C(F)(F)F)c3)cc2)ccn1: 89.5% and 90%
NCCCNCCSP(=O)(O)O: 99.3%
CN1CCc2nc(C(=O)N[C@@H]3C[C@@H](C(=O)N(C)C)CC[C@@H]3NC(=O)C(=O)Nc3ccc(Cl)cn3)sc2C1: 104%
CO[C@H]1C(=O)[C@]2(C)[C@@H](OC)C[C@H]3OC[C@@]3(OC(C)=O)[C@H]2[C@H](OC(=O)c2ccccc2)[C@]2(O)C[C@H](OC(=O)[C@H](O)[C@@H](NC(=O)OC(C)(C)C)c3ccccc3)C(C)=C1C2(C)C: 60.9%
Cc1c(O)cccc1C(=O)N[C@@H](CSc1ccccc1)[C@H](O)CN1C[C@H]2CCCC[C@H]2C[C@H]1C(=O)NC(C)(C)C: 93.6%
O=S(=O)(O)Oc1ccc(C(c2ccc(OS(=O)(=O)O)cc2)c2ccccn2)cc1: 99.2%
Nc1ncn([C@H]2C[C@H](O)[C@@H](CO)O2)c(=O)n1: 97.7%

Mixed results
CC(C)(C)c1cc(C=C(C#N)C#N)cc(Br)c1O  viability (HuT78; 2 µM, 48 h; baseline: untreated): 138%
